Results of several laboratories.
Protocols differ between the studies behind these lines. “And” joins repeats or separate records; there may be more than shown.
Target: Mitogen-activated protein kinase kinase kinase 5 (MAP3K5, Homo sapiens, UniProt Q99683)
Residues used in one study (Q99683 1-1374): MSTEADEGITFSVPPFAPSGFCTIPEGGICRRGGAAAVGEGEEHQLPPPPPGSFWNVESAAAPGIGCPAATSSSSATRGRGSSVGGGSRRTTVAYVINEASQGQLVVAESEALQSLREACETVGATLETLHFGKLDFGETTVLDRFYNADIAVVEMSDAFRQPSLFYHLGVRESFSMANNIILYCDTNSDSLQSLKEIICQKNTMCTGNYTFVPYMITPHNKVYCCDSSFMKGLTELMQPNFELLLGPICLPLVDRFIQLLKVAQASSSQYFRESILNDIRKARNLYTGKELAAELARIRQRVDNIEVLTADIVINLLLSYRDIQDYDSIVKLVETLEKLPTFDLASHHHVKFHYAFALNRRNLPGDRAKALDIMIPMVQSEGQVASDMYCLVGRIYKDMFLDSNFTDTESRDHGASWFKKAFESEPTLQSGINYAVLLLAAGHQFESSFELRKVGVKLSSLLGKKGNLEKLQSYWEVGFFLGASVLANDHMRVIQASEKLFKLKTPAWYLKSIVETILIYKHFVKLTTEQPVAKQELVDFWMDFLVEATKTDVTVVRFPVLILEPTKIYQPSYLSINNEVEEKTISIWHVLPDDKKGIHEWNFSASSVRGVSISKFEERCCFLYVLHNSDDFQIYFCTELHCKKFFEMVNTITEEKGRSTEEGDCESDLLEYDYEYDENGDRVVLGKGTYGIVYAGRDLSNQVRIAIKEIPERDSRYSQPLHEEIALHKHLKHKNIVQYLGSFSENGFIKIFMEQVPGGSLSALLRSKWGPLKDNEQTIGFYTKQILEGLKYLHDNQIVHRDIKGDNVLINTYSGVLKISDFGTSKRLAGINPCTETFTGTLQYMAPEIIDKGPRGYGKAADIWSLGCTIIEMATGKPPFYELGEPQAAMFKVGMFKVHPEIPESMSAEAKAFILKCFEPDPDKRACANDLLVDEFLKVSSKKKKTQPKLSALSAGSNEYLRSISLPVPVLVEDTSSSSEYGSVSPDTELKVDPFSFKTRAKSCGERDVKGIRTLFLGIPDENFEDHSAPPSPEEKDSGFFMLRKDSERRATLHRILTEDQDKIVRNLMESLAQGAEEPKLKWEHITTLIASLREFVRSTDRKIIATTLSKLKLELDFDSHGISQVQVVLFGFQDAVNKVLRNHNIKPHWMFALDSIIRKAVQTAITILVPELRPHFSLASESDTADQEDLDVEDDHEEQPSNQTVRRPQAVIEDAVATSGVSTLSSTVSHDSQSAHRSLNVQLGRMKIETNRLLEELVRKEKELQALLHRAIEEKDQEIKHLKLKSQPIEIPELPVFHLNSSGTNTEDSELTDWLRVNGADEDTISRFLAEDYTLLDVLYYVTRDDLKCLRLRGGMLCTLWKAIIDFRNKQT

Compound = C=CC(=O)Nc1cc(-c2nn(C3CCN(CCNC(=O)[C@H](C)CCC45CC6CC(CC(C6)C4)C5)CC3)c3ncnc(N)c23)ccc1Oc1ccccc1; assay = inhibitor, KiNativ profiling; system = biochemical; setting = 2 µM; quantity = inhibition; value = 20.6%
Compound = Cc1cnc2nc1Nc1cccc(c1)COC/C=C/COCc1cc(ccc1OCCN1CCOCC1)N2; assay = binding, competition with immobilised ligand; setting = 0.1 µM; quantity = remaining binding; value = 100%
Compound = COc1ccc(NC(=O)Nc2ccc3c(c2)C(=O)N(C(C)CO)CC(C)C(CN(C)Cc2ccc4c(c2)OCO4)O3)cc1 (centres unmarked); assay = kinase activity, KinaseProfiler; setting = 0.03 µM, species human; how to read = reference: control; quantity = remaining activity; value = 109%
Compound = CCN1CCN(Cc2ccc(C(=O)Nc3ccc(C)c(NCc4cnc5[nH]ccc5c4OC)c3)cc2C(F)(F)F)CC1; assay = binding, competition with immobilised ligand; setting = 1 µM; quantity = remaining binding; value = 91%
Compound = COc1cc(Nc2nc(C)cc(-c3cnn4nc(OC)ccc34)n2)cc(C(F)(F)F)c1; assay = inhibitor; setting = 1 µM, ASK1; how to read = reference: control; quantity = remaining activity; value = 80%
Compound = CNC1C[S+]2CC[S+]3CC[S+](C1)[Ru-4]321([N]=C=S)[n]2c3ccc(OC)cc3c3c4c(c5cc(F)c[n+]1c5c32)C(=O)NC4=O (centres unmarked); assay = KinomeScan; setting = 0.1 µM; how to read = reference: untreated; quantity = remaining binding; value = 100%
Compound = O=C(Nc1ccc(Oc2ncnc3[nH]cc(-c4ccccc4)c23)c(F)c1)c1c2n(n(-c3cc(F)ccc3F)c1=O)CCCC2; assay = enzyme activity, inhibitor; setting = 0.5 µM; quantity = inhibition; value = -11%
Compound = Nc1ncc2c(n1)-c1c([nH]c3ccc(C4=CCOCC4)cc13)CCC2; assay = binding, competition with immobilised ligand; setting = 1 µM; quantity = remaining binding; value = 100%
Compound = N[C@H]1CC[C@H](Nc2nccc(-c3cccnc3Oc3ccc(NC(=O)NC4CC4)c4ccccc34)n2)CC1; assay = kinobead competition pulldown; system = HEK293/HCT116 lysate mixture; setting = 10 µM, 1 h, 4 °C; how to read = lower = stronger competition; quantity = log2 LFQ intensity; value = 19.6 and 18.8 and 20 and 19.3
Compound = NC(=O)[C@@H](O)C[C@H]1CCc2sc3ncnc(O[C@H]4CC[C@H](N5CCOCC5)CC4)c3c21; assay = enzyme activity, inhibitor; setting = 10 µM; quantity = inhibition; value = 4%
Compound = C=CC(=O)N1CCc2ccc(-n3c(=O)ccc4cnc5ccc(-c6cnn(C)c6)cc5c43)cc21; assay = KINOMEscan; setting = 1 µM; how to read = reference: DMSO control; quantity = remaining binding; value = 100%
Compound = CN1CCN(Cc2ccc(-c3ccc(CO[C@H]4CCC[C@@H]4NC(=O)c4cc(-c5cnn(C)c5)cnc4N)cc3)cc2)CC1; assay = enzyme activity, inhibitor; setting = 0.1 µM; quantity = inhibition; value = -4%
Compound = CCn1cc(C(=O)O)c(=O)c2c(N)c(F)c(NC3CCCCC3)cc21; assay = kinase activity; setting = 0.1 µM, with: ATP at Km; quantity = inhibition; value = 15%
Compound = CNC(=O)C[C@H](Cc1ccc(C#N)cc1)NC(=O)c1cc(-c2ccc(CN[C@H](C)c3ccc(C)cc3)o2)ccc1Cl; assay = enzyme activity, inhibitor; setting = 1 µM; quantity = activity vs control; value = 101%

Some of these lines once more:
Compound = CCN1CCN(Cc2ccc(C(=O)Nc3ccc(C)c(NCc4cnc5[nH]ccc5c4OC)c3)cc2C(F)(F)F)CC1; assay = binding, competition with immobilised ligand; setting = 1 µM; quantity = remaining binding; value = 91%
